Experimental data gathered from unrelated publications.
Values joined by “and” are separate records of one study, mostly repeats; a detail may differ. ± gives the spread as reported.

Compound = CC[C@H](C)[C@H](NC(=O)[C@H](CC(C)C)NC(=O)[C@H](CCCNC(=N)N)NC(=O)[C@@H](N)CCCNC(=N)N)C(=O)N[C@@H](CCCNC(=N)N)C(=O)N[C@@H](CCCCN)C(=O)N[C@@H](CC(C)C)C(=O)N[C@@H](CCCCN)C(=O)NCC(=O)N[C@@H](CC(C)C)C(=O)N[C@@H](CCCCN)C(=O)N[C@@H](CCCCN)C(=O)N[C@@H](Cc1ccc(O)cc1)C(=O)N[C@@H](CC(C)C)C(=O)N[C@@H](Cc1ccc(O)cc1)C(=O)N[C@@H](Cc1ccccc1)C(=O)N[C@@H](CCCCN)C(=O)N[C@@H](CC(C)C)C(=O)N[C@@H](CCC(N)=O)C(=O)N[C@@H](CC(C)C)C(=O)N[C@@H](CC(C)C)C(=O)N[C@@H](CCCCN)C(=O)N[C@@H](CCCCN)C(N)=O; cell line = HCT-116; method = MTT; tested at = 64 µM; time = 48 h; viability = ~70%
Compound = CCSc1nc2ccccc2n1Cc1nnc(-c2ccc(C)cc2)o1; cell line = neutrophils; matrix = fresh heparinized human blood; tested at = 200 µg/mL; time = 30 min; viability = 79.4 ± 3.1%
Compound = Cc1cc(C(F)(F)F)c2c(N)c(C(=O)NCc3ccccc3)sc2n1; cell line = MDA-MB-231; method = MTT; tested at = 100 µM; time = 72 h; viability = 73 ± 9%
Compound = Nc1ncnc2c1ncn2[C@@H]1O[C@@H]2COP(=O)(O)O[C@H]3[C@@H](O)[C@H](n4cnc5c(=O)[nH]cnc54)O[C@@H]3COP(=O)(O)O[C@H]2[C@H]1O; cell line = HFF-1; tested at = 100 µg/mL; viability = 92%
Compound = COC(=O)c1ccc(NC(=O)c2sc3nc(C)cc(-c4ccccc4)c3c2N)cc1; cell line = MDA-MB-231; method = MTT; tested at = 100 µM; time = 72 h; viability = 29 ± 7%
Compound = CCSc1nc2ccccc2n1Cc1nnc(-c2ccccc2O)o1; cell line = neutrophils; matrix = fresh heparinized human blood; tested at = 200 µg/mL; time = 30 min; viability = 86.5 ± 7.4%
Compound = N#Cc1c(C(F)(F)F)cc(-c2ccccc2)nc1SCC(=O)Nc1ccon1; cell line = MDA-MB-231; method = MTT; tested at = 100 µM; time = 72 h; viability = 50 ± 9%
Compound = Cn1cc2cc(C(F)(F)c3nnc4ccc(-c5cnn(C6CC6)c5)nn34)c(F)cc2n1; cell line = MKN-45; method = CCK-8; tested at = 0.0125 µM; time = 72 h; reference = untreated; viability = 44% and 43% and 52.4%
Compound = CCOC(=O)c1ccc(NC(=O)CSc2nc(C)cc(-c3ccccc3)c2C#N)cc1; cell line = MDA-MB-231; method = MTT; tested at = 100 µM; time = 72 h; viability = 18 ± 4%
Compound = C[C@@H]1O[C@@H](OC[C@H]2O[C@@H](Oc3c(-c4ccc(O)c(O)c4)oc4cc(O)cc(O)c4c3=O)[C@H](O)[C@@H](O)[C@@H]2O)[C@H](O)[C@H](O)[C@H]1O; cell line = Caco-2; method = CCK-8; tested at = 20 µM; time = 24 h; viability = 113%
Compound = CCOC(=O)c1ccc(NC(=O)CSc2nc(C)cc(C)c2C#N)cc1; cell line = MDA-MB-231; method = MTT; tested at = 100 µM; time = 72 h; viability = 64 ± 17%
Compound = CCSc1nc2ccccc2n1Cc1nnc(-c2ccc(F)cc2)o1; cell line = neutrophils; matrix = fresh heparinized human blood; tested at = 200 µg/mL; time = 30 min; viability = 55.5%
Compound = Cc1cc(-c2ccccc2)nc(SCC(=O)Nc2ccccc2)c1C#N; cell line = MDA-MB-231; method = MTT; tested at = 100 µM; time = 72 h; viability = 31 ± 3%
Compound = CCSc1nc2ccccc2n1Cc1nnc(-c2ccccc2Cl)o1; cell line = neutrophils; matrix = fresh heparinized human blood; tested at = 200 µg/mL; time = 30 min; viability = 30 ± 5.2%
Compound = CC(C)C[C@@H](NC(=O)CNC(=O)[C@@H](CCCCN)NC(=O)[C@@H](CC(C)C)NC(=O)[C@@H](CCCCN)NC(=O)[C@@H](CCCNC(=N)N)NC(=O)[C@@H](CC(C)C)NC(=O)[C@@H](CC(C)C)NC(=O)[C@@H](CCCNC(=N)N)NC(=O)[C@H](N)CCCNC(=N)N)C(=O)N[C@H](CCCCN)C(=O)N[C@H](CCCCN)C(=O)N[C@H](Cc1ccc(O)cc1)C(=O)N[C@H](CC(C)C)C(=O)N[C@H](Cc1ccc(O)cc1)C(=O)N[C@H](Cc1ccccc1)C(=O)N[C@H](CCCCN)C(=O)N[C@H](CC(C)C)C(=O)N[C@H](CCC(N)=O)C(=O)N[C@H](CC(C)C)C(=O)N[C@H](CC(C)C)C(=O)N[C@H](CCCCN)C(=O)N[C@H](CCCCN)C(N)=O; cell line = HCT-116; method = MTT; tested at = 32 µM; time = 48 h; viability = ~70%
Compound = CCSc1nc2ccccc2n1Cc1nnc(-c2ccc(O)cc2O)o1; cell line = neutrophils; matrix = fresh heparinized human blood; tested at = 200 µg/mL; time = 30 min; viability = 84.33 ± 0.1%
Compound = Cc1cc(C(F)(F)F)c2c(N)c(C(=O)Nc3cccnc3)sc2n1; cell line = MDA-MB-231; method = MTT; tested at = 100 µM; time = 72 h; viability = 49 ± 6%
Compound = CCSc1nc2ccccc2n1Cc1nnc(-c2cc(OC)c(OC)c(OC)c2)o1; cell line = neutrophils; matrix = fresh heparinized human blood; tested at = 200 µg/mL; time = 30 min; viability = 79 ± 7.1%
Compound = O=c1c(O[C@@H]2O[C@H](CO)[C@H](O)[C@H](O)[C@H]2O)c(-c2ccc(O)c(O)c2)oc2cc(O)cc(O)c12; cell line = Caco-2; method = CCK-8; tested at = 5 µM; time = 24 h; viability = 93.7%
Compound = O=C1CCP(=S)(c2ccccc2)CC1; cell line = HCT-116; method = trypan blue; tested at = IC50; time = 72 h; viability = 78.3%
Compound = O=c1cc(-c2ccc(O)cc2)oc2c([C@@H]3O[C@H](CO)[C@@H](O)[C@H](O)[C@H]3O)c(O)cc(O)c12; cell line = Caco-2; method = CCK-8; tested at = 10 µM; time = 24 h; viability = 92.7%
Compound = CCSc1nc2ccccc2n1Cc1nnc(-c2ccc(O)cc2)o1; cell line = neutrophils; matrix = fresh heparinized human blood; tested at = 200 µg/mL; time = 30 min; viability = 80.4 ± 7.1%
Compound = CC(C)c1ccc(C(=O)c2c(N)c(C(N)=O)c3ccccn23)cc1; cell line = THP-1-derived macrophages; tested at = 10 µM; time = 3 h; viability = 100% and 95.8% and 92.9%
Compound = Cc1cc(C(F)(F)F)c2c(N)c(C(=O)Nc3ccccc3)sc2n1; cell line = MDA-MB-231; method = MTT; tested at = 100 µM; time = 72 h; viability = 52 ± 6%
Compound = CCSc1nc2ccccc2n1Cc1nnc(-c2ccc(OC)c(OC)c2)o1; cell line = neutrophils; matrix = fresh heparinized human blood; tested at = 200 µg/mL; time = 30 min; viability = 95.4 ± 5.2%

A few entries again:
Compound = O=c1cc(-c2ccc(O)cc2)oc2c([C@@H]3O[C@H](CO)[C@@H](O)[C@H](O)[C@H]3O)c(O)cc(O)c12; cell line = Caco-2; method = CCK-8; tested at = 10 µM; time = 24 h; viability = 92.7%
Compound = CCSc1nc2ccccc2n1Cc1nnc(-c2ccc(O)cc2)o1; cell line = neutrophils; matrix = fresh heparinized human blood; tested at = 200 µg/mL; time = 30 min; viability = 80.4 ± 7.1%
